Measured values of several laboratories.
Each numbered part is a random draw from the data of one study; scales do not carry over between parts. Substitutions count along the parent as printed.

Block 1 — method: DHFR PCA, deep sequencing; matrix: yeast; together with: (+)-ABA 0.0091 µM; reference: wild-type fitted maximum; reading: higher = stronger binding
Target: ABI1, truncated, D143A, DHFR fusion (Arabidopsis thaliana)
Setting: methotrexate growth selection, single substitutions
Starting sequence: PYL1, truncated, DHFR fusion (Arabidopsis thaliana); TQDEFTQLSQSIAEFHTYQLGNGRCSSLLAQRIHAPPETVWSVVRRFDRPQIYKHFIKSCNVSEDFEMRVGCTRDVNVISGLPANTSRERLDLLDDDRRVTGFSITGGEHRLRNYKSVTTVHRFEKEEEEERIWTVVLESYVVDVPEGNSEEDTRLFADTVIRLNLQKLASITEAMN; partner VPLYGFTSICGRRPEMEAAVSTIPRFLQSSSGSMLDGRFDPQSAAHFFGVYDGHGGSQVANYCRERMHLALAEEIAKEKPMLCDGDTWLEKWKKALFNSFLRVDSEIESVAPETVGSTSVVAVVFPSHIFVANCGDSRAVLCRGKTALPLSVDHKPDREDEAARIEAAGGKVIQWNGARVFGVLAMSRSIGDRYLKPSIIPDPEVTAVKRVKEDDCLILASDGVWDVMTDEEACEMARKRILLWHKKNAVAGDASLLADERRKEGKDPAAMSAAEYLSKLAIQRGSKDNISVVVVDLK
Under “relative binding score”, `N77C` is recorded as 54.4%.
Under “relative binding score”, `T119Q` is recorded as -0.735%.
Under “relative binding score”, `K116V` is recorded as 8.03%.
Under “relative binding score”, `E131L` is recorded as 39.4%.
For `Q2L`, “relative binding score” read 63.2%.
For `I172F`, “relative binding score” read -4.34%.
Under “relative binding score”, `M176S` is recorded as 1.92%.
Under “relative binding score”, `S63K` is recorded as 34.7%.
Under “relative binding score”, `N114I` is recorded as 1.32%.
Under “relative binding score”, `E89W` is recorded as 12.6%.
Under “relative binding score”, `R111C` is recorded as 4.8%.
For `F66I`, “relative binding score” read -3.11%.
`I57T` — result for “relative binding score”: 2.39%.
For `T120H`, “relative binding score” read -1.03%.
`P83I` — result for “relative binding score”: -6.58%.
`E147S`: “relative binding score” 8.68%.
`L20C`: “relative binding score” 39.1%.
`L91H`: “relative binding score” 0.803%.

Block 2 — target: CCNA1, cyclin fold, Cln2 fusion (human); method: yeast growth competition, sequencing; matrix: yeast; setting: weak parent motif; reference: not given; reading: higher = stronger binding
Starting sequence: E2F3 docking peptide (human); PPAKRRLELGESG; partner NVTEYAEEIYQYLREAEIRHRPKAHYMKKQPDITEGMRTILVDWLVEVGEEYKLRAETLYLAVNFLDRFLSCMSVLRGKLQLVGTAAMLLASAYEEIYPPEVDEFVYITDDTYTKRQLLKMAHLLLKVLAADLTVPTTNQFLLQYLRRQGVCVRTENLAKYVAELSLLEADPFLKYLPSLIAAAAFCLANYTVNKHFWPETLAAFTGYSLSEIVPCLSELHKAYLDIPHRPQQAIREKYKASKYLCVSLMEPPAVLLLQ
For `G13A`, “normalised enrichment score” read 0.383.
`R5A`: “normalised enrichment score” 0.305.
Under “normalised enrichment score”, `G10A` is recorded as 0.613.
`P2A` — result for “normalised enrichment score”: 0.431.
`R5A L7A` — result for “normalised enrichment score”: 0.0367.
Under “normalised enrichment score”, `P1A` is recorded as 0.626.
Under “normalised enrichment score”, `L9F` is recorded as 1.52.
`K4A`: “normalised enrichment score” 0.417.
`R5K L9F`: “normalised enrichment score” 1.65.

Block 3 — method: protein-binding microarray; molecule type: double-stranded DNA, one strand shown; matrix: in vitro; tested at: 250 nM; setting: 60-bp whole probe; together with: salmon DNA 0.4 mg/ml; reference: random background probes; reading: higher = stronger binding; shared flanks, not repeated: GCCTAGCAC … GTCTTGATTCGCTTGACGCTGCTG
Target: Interferon regulatory factor 5, full length, phosphomimetic (IRF5, Homo sapiens, UniProt Q13568-2, residues 1-514, K96S/S451D/S453D/S456D/S462D)
`AGTTTTTCATTTTTTTTCATGTGCTAG` has a log fluorescence of 2.13 z-score.
With `TCAATTTTGGTTTTCCTACTGTGCTAG` the log fluorescence was 2.53 z-score.
`GACTATTTCAGTCTCGAGACGTGCTAG` gave a log fluorescence of 1.84 z-score.
`TTAGGACTGCTTTTCCGTTAGTGCTAG` has a log fluorescence of 0.135 z-score.
`TTACATATCGGGTTTCGATTAGTGCTA` gave a log fluorescence of 8.02 z-score.
`TTAGGTTTCGACTATAGGTTAGTGCTA` gave a log fluorescence of 7.32 z-score.
`GACGGTATCCTACTGCTGACGTGCTAG` has a log fluorescence of -0.0839 z-score.
For `AGTCTTCTCCTCTAGGTTCTCGTGCTA`, the log fluorescence was 0.131 z-score.
With `GACGATTTCAGACTGGACACGTGCTAG` the log fluorescence was 0.3 z-score.
For `TTAGGTATCGACTATGGGTTAGTGCTA`, the log fluorescence was 3.22 z-score.
For `TTAGGTCTCCTACCGCTTTAGTGCTAG`, the log fluorescence was -0.175 z-score.
`TCATCTCTGCCACTCAGACTGTGCTAG` has a log fluorescence of 0.0388 z-score.
With `GACGGTTTCGGGTATCGGGTCGTGCTA` the log fluorescence was 8.16 z-score.
The log fluorescence of `GACGGACTGGTTATCCTGACGTGCTAG` is reported as -0.445 z-score.
For `TCACCACTTTCTTTTGCACTGTGCTAG`, the log fluorescence was 2.36 z-score.
With `GACGGTATCGGTTATCGGGACGTGCTA` the log fluorescence was 7.03 z-score.
The log fluorescence of `TTAGATTCCAGTATCGATTAGTGCTAG` is reported as 7.06 z-score.
`ATTTAAGTTTCACTCTGCATGGTGCTA` gave a log fluorescence of 6.79 z-score.
`GACGGTTTCGGTATCGGGGCGTGCTAG` has a log fluorescence of 9.6 z-score.
For `GACGGACTGGACACTCGGGACGTGCTA`, the log fluorescence was -0.608 z-score.
For `TCATTTTAAAGTTTCAGACTGTGCTAG`, the log fluorescence was 1.11 z-score.
`GACGGGCTGGGGTTTCGGGACGTGCTA` has a log fluorescence of 0.872 z-score.
The log fluorescence of `TTAGGTTTCGACTTTTGGTTAGTGCTA` is reported as 7.24 z-score.
`TTAGGTCTCGGTAACGGTTAGTGCTAG` has a log fluorescence of 0.617 z-score.
With `GACGGTCTCCTTCTCCAGACGTGCTAG` the log fluorescence was -0.375 z-score.

Block 4 — method: protein-binding microarray; molecule type: double-stranded DNA, one strand shown; matrix: in vitro; tested at: 0.8 µM; setting: whole 60-bp probe, no competitor; reading: higher = stronger binding
Target: Centromere-binding protein 1, full length, N-terminal tag (CBF1, Saccharomyces cerevisiae, UniProt P17106, residues 1-351)
Chain of UniProt P17106 (whole entry, looked up): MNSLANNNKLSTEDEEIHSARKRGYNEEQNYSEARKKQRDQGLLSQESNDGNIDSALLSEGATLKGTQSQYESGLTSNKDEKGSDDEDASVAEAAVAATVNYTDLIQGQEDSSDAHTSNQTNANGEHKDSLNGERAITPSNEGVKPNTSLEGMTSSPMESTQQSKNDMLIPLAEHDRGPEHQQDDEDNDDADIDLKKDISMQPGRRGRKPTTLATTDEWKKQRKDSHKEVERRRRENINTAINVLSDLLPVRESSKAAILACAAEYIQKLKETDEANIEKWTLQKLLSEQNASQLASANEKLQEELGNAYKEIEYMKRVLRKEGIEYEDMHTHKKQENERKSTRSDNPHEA
For `GAACCTTTCACTTCCCACGTTTAGCGGGACAGGTAGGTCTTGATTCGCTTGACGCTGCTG`, the fluorescence intensity was 534 a.u.
For `GAATGAATGCCGGGCCGCGTGGCGTCTGTAGCTTAGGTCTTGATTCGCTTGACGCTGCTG`, the fluorescence intensity was 708 a.u.
The fluorescence intensity of `CTAGAGTGCGCGGTATACGTGCGGCCCTAAACGTTCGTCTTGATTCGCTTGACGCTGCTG` is reported as 491 a.u.
With `GAAGAAAAATTACATCAGCGAACTAATGCTTTCTAGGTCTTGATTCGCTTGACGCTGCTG` the fluorescence intensity was 512 a.u.
For `TGTACGAAGCTATCTGATGTAGGTATAGTAGTTAGGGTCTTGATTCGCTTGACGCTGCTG`, the fluorescence intensity was 525 a.u.
For `CTACATCAAATTAATCACGTGCTTTTTAAAAAATTCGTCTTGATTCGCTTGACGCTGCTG`, the fluorescence intensity was 20900 a.u.
The fluorescence intensity of `GAATAGAATAAACGAAAGGTGACAGAAATAGAATAGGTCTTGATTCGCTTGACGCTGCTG` is reported as 551 a.u.
For `CTATAGTTTAGTTATGGCGTGACATAATAACGGTTCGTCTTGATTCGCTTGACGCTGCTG`, the fluorescence intensity was 1430 a.u.
With `CTAATGCGATGTGGCCACGTTATATAATGCGTTTTCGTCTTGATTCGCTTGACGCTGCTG` the fluorescence intensity was 580 a.u.
For `CTAGCAGATCCACGCCACGCCATCTCACTTACGTTCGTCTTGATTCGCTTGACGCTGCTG`, the fluorescence intensity was 513 a.u.
For `CTACCAGTTATGATTGACGTCATTCTGAGTTACTTCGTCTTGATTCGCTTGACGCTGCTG`, the fluorescence intensity was 514 a.u.
The fluorescence intensity of `CTAAGGCAATTCAATCAGGTGGTTATACTTGTTTTCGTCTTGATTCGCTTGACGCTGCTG` is reported as 913 a.u.
`GAAGCTCCACCTCATCACCTGAAAAATCTGGAATAGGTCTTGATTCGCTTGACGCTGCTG` has a fluorescence intensity of 566 a.u.
`CTATCTCCCTCCTCCCACGTTATTTGTCTAGCATTCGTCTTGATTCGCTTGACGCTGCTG` gave a fluorescence intensity of 575 a.u.
With `CTATGCTCGGTCGACAACGTGTATGTTTTTGCCTTCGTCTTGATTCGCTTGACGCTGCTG` the fluorescence intensity was 600 a.u.
For `CTAGAAAATACTGCCCACGCAATTGTCCCTTTCTTCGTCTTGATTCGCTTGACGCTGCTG`, the fluorescence intensity was 481 a.u.
`CTAATGAGCTTTCCTCGCGTCACGGTGTCAGTATTCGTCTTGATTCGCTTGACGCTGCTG` has a fluorescence intensity of 1160 a.u.
With `GAACCTAGTGTCGGCCACCTGATAAAGGTTTTTTAGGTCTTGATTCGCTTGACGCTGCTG` the fluorescence intensity was 657 a.u.
The fluorescence intensity of `CTACCCTCTAAACACGTGGAGAGTAACCTTTTCTTCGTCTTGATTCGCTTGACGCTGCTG` is reported as 3410 a.u.
For `CTAAAACATATAAATAGCGTGCATATTCTTCTCTTCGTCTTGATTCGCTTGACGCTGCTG`, the fluorescence intensity was 547 a.u.
`CCTAACTACTATAGTGGTGGGACATAGCTTCGTACAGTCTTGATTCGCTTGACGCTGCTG` gave a fluorescence intensity of 508 a.u.
For `GAATTCCAATTTGTTGTTATTCCCTATGCCGCATAGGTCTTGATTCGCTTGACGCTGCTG`, the fluorescence intensity was 489 a.u.

Block 5 — target: JDP2, bZIP domain (human); method: DHFR protein complementation; matrix: yeast; reference: wild-type JUN-FOS pair; reading: higher = stronger binding
Setting: single substitutions, most at no-binding floor
Starting sequence: JUN, bZIP domain (human); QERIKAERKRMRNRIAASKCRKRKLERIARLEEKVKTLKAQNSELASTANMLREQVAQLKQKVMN; partner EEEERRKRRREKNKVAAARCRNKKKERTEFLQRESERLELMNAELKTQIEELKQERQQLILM
With `Q41F` the binding fitness was -0.488 natural log.
`E44D` has a binding fitness of 0.154 natural log.
`A29F` gave a binding fitness of 0.208 natural log.
For `E33T`, the binding fitness was 0.266 natural log.
`T37H` has a binding fitness of 0.391 natural log.
`E44V` gave a binding fitness of 0.239 natural log.
`A40N` has a binding fitness of 0.327 natural log.
`V35P` has a binding fitness of -0.909 natural log.
With `L52Q` the binding fitness was -0.351 natural log.
With `S47R` the binding fitness was 0.253 natural log.
With `S43C` the binding fitness was 0.246 natural log.
The binding fitness of `N42Q` is reported as 0.246 natural log.
With `E32P` the binding fitness was 0.0602 natural log.
With `Q41H` the binding fitness was 0.198 natural log.
The binding fitness of `K34W` is reported as 0.482 natural log.

A few entries again (block 1):
For `T120H`, “relative binding score” read -1.03%.
`I57T` — result for “relative binding score”: 2.39%.
`L20C`: “relative binding score” 39.1%.
Under “relative binding score”, `N77C` is recorded as 54.4%.
For `F66I`, “relative binding score” read -3.11%.
For `Q2L`, “relative binding score” read 63.2%.
Under “relative binding score”, `E89W` is recorded as 12.6%.
Under “relative binding score”, `K116V` is recorded as 8.03%.
For `I172F`, “relative binding score” read -4.34%.
`L91H`: “relative binding score” 0.803%.
`E147S`: “relative binding score” 8.68%.
Under “relative binding score”, `R111C` is recorded as 4.8%.
Under “relative binding score”, `T119Q` is recorded as -0.735%.
